# Published values collected from several papers.
# Parts stem from different laboratories: compare values within a part only. ± gives the spread as reported.
# UniProt A0A059WYP6, sequence (whole entry, looked up): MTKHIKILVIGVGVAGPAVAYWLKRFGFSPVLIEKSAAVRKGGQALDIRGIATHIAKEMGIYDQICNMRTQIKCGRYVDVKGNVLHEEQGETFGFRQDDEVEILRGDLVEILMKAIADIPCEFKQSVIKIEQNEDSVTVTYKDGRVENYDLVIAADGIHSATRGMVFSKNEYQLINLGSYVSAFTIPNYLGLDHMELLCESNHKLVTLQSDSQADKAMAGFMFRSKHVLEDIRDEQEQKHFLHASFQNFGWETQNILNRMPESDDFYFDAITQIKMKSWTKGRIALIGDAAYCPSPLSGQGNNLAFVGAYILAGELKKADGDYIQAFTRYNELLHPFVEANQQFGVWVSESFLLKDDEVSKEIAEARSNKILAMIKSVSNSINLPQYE
# UniProt P07711, sequence (whole entry, looked up): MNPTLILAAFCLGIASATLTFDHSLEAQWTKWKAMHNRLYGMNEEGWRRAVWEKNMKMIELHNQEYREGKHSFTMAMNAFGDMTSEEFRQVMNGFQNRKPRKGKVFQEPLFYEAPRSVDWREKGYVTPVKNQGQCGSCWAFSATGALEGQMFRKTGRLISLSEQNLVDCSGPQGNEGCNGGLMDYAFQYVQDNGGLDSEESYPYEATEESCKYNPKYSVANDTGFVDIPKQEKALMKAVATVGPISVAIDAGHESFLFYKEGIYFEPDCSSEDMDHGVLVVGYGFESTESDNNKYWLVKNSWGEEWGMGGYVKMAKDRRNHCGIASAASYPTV

# Set 1
# Cell line: T47D
# Time: 72 h
# Setting: 10% FBS
Structure (SMILES),CC50
O=C(NCc1ccccc1)c1cn(Cc2ccc(C(F)(F)F)cc2)c2ccc(Oc3ccccc3)cc2c1=O,77 ± 12.2 µM
O=C(NCc1ccc(C(F)(F)F)cc1)c1cn(Cc2ccc(F)cc2)c2ccc(Oc3ccccc3)cc2c1=O,39.8 ± 0.96 µM
O=C(NCc1ccc(Cl)cc1)c1cn(Cc2ccc(Cl)cc2)c2ccc(Oc3ccccc3)cc2c1=O,> 100 µM

# Mixed results
SMILES,tested on,test,setting,measurement,value
Cc1c2c(c(O)c3c(O)c(NC(=O)c4ccccc4[N+](=O)[O-])ccc13)C(=O)[C@]1(O)C(=O)C(C(N)=O)=C(O)[C@@H](N(C)C)[C@@H]1C2,"Flavin-dependent monooxygenase (tet(50), Unknown prokaryotic organism, UniProt A0A059WYP6)",,,IC50,> 1000 µM
C1=C2CCCN[C@H]2[C@@H]2C[C@H]1[C@H]1CCCCN1C2,MT4,cell viability,3 days,CC50,> 80 µM
C/C(=C\c1ccccc1)C(=O)Nc1ncccn1,Candida albicans,,concentration not given,antifungal activity,inactive
CC(C)C[C@H](NC(=O)[C@H]1O[C@@H]1C(=O)O)C(=O)NCCCCN=C(N)N,"Procathepsin L (CTSL, Homo sapiens, UniProt P07711)","enzyme activity, inhibitor",,IC50,0.0015 µM
